Measured values collected from several papers.
Every numbered part comes from another study and shows a few of its results, in no order.

Series 1
Target: Histone acetyltransferase KAT6A, both winged helices, GST fusion (KAT6A, Homo sapiens, UniProt Q92794, residues 1-181)
Method: protein binding microarray
Molecule type: double-stranded DNA, one strand shown
Sample: in vitro
Concentration: not given
Setting: 8-mer, flanks averaged, mean of 2 arrays, mostly near background
Baseline: not given
Direction: higher = stronger binding
Target sequence (chain): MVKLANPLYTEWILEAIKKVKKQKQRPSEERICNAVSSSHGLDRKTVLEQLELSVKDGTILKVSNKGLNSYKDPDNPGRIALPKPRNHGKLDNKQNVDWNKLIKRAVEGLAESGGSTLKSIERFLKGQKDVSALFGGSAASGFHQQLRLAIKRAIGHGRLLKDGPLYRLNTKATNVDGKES
Oligonucleotide	E-score
ACAATCAC	-0.0736
ATAACCGA	0.0425
GCCGTTAC	0.296
ATAGGCCG	0.172
GTTTAAAC	0.191
CACTCTAA	-0.221
CTAACTTC	-0.199
CCGCATGA	0.0472
AACAAACT	-0.129

Series 2
Target: Sal-like protein 4, full length isoform A (SALL4, Homo sapiens, UniProt Q9UJQ4, residues 1-1053)
Chain of UniProt Q9UJQ4 (whole entry, looked up): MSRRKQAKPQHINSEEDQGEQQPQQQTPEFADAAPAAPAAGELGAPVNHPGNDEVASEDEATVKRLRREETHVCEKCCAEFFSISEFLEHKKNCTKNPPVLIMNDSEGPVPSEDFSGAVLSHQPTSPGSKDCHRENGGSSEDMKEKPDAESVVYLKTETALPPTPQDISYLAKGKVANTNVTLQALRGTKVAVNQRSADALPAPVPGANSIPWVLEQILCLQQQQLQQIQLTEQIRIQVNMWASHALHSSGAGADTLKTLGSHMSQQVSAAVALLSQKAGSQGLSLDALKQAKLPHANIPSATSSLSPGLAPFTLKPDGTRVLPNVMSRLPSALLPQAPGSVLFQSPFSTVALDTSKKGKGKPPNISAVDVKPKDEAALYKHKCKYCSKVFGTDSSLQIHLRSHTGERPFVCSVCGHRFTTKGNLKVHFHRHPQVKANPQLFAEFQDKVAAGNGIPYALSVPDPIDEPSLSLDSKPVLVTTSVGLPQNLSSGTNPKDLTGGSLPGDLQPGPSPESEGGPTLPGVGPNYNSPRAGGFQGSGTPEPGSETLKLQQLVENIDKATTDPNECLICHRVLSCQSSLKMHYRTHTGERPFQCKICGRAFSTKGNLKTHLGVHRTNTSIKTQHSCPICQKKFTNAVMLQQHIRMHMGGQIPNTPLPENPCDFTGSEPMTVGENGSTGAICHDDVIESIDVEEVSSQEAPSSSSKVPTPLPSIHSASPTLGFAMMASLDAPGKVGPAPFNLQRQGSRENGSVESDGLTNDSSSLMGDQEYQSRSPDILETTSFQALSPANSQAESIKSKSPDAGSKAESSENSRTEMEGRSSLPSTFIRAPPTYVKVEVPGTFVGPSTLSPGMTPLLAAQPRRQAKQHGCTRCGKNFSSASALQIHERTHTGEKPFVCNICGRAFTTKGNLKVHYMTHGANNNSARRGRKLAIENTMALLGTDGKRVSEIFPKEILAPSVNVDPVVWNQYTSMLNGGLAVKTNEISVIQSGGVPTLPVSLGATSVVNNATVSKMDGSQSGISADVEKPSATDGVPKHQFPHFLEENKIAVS
Method: universal PBM
Molecule type: double-stranded DNA, one strand shown
Sample: in vitro
Concentration: 600 nM
Setting: 8-mer, flanks averaged, mean of replicates
Direction: higher = stronger binding
Oligonucleotide	E-score
CGACTGAC	-0.152
ATGGGACA	-0.127
CCTTCGAA	-0.117
ATCCCTCC	-0.0639
AAGGAGGG	-0.214
GTTCTACA	0.0769
CTGGACAA	-0.048
ACTTCTCA	0.09
CAGAGGTC	-0.212
CATGCAGC	-0.144
TACCCGCA	-0.14
CCTTGTAA	0.24

Series 3
Target: Prothrombin, mature alpha-thrombin (F2, Homo sapiens, UniProt P00734)
Method: aptamer microarray, sandwich
Molecule type: DNA with 2'F-ANA
Sample: in vitro
Concentration: 200 nM
Setting: whole 15-mer aptamer, many near background
Added: Cy3 exosite-II aptamer, 400 nM
Direction: higher = stronger binding
Oligonucleotide: GGTTGGTGTGGTTGG
Modification	mean fluorescence intensity [a.u.]
2'F-ANA at 2 3 6 7 8 9 11 12 14	335
2'F-ANA at 1 3 5 7 8 9 10 11 15	50.8
2'F-ANA at 2 4 6 10 11 13 14	115
2'F-ANA at 1 2 3 4 7 10 12 13	63.1
2'F-ANA at 2 6 13 15	314
2'F-ANA at 3 4 5 6 7 9 11 12 14	51.1
2'F-ANA at 3 4 6 7 8 10 13 15	209
2'F-ANA at 1 2 3 4 5 6 8 9 10 12 13 15	93.3
2'F-ANA at 1 2 5 8 10 14 15	44.9
2'F-ANA at 4 5 7 9 12 14	46.6
2'F-ANA at 1 3 5 6 7 8 9 10 11 15	51.1
2'F-ANA at 1 5 6 12	115

Mixed results
Substance	target	assay	system	setting	scale	quantity	result
PhoQ, residues 284 288 289 292 302 303 TNSAEL	PhoP, residues 12 14 15 18 19 GHCSL (Escherichia coli, UniProt P23836)	Sort-seq, item: YFP reporter	E. coli	PhoQ-PhoP variant library, added: 10 µM Mg2+	baseline: high Mg2+ state, higher = stronger signaling	fold induction	12

Repeated from above (series 2):
Oligonucleotide	E-score
CCTTCGAA	-0.117
GTTCTACA	0.0769
ATGGGACA	-0.127
